Measurements pooled from the literature.
Each numbered part is a random draw from the data of one study; scales do not carry over between parts. Positions count from the first letter of the parent shown.

Study 1
Target: Sal-like protein 4, full length isoform B (SALL4, Homo sapiens, UniProt Q9UJQ4-2, residues 1-616)
Method: universal PBM
Form: double-stranded DNA, one strand shown
Sample: in vitro
Concentration: not given
Notes: 8-mer, flanks averaged, mean of replicates
Reading: higher = stronger binding
| Oligonucleotide | E-score |
| --- | --- |
| TCGGTGAA | -0.0817 |
| AGTCCAGC | -0.262 |
| CAGACGCG | -0.343 |
| AGACTATA | 0.15 |
| CGTGGCAA | -0.0438 |
| ATCATGGG | -0.163 |
| AGCCTTAT | 0.107 |
| CGGGGTAG | -0.267 |
| CGCATCGC | -0.132 |
| CCCTCGCG | -0.261 |
| AATGCCTG | -0.0607 |
| ATAAGCCC | -0.0385 |
| TAATCGCA | 0.156 |
| GCATGTGA | 0.018 |
| ATACAACA | 0.276 |
| AAGATTAT | 0.3 |
| AGCCCGCC | -0.374 |
| ATATAAGG | 0.232 |
| CCCGTGCC | -0.331 |
| ATCGGGAA | -0.158 |
| CAATGCGG | -0.193 |
| AATTGGGA | -0.00605 |
| AGCACAAT | 0.144 |
| AGCGAGTA | -0.124 |
| CCGCCTAG | -0.166 |

Study 2
Target: UBE2Z UBC core domain (UniProt Q9H832)
Method: yeast two-hybrid
Sample: yeast
Notes: mostly zero background
Reference: not given
Reading: higher = stronger interaction
B1: TRIML1 RING domain (UniProt Q8N9V2); chain LMENLREELTCFICLDYFSSPVTTECGHSFCLVCLLRSWEEHNTPLSCPECWRTLEGPHFQS
B2: VPS41 RING domain (UniProt P49754); chain KGVLVDEENICESCLSPILPSDAAKPFSVVVFHCRHMFHKECLPMPSMNSAAQFCNICSAKNRGPGSAI
B3: RNF38 RING domain (UniProt Q9H0F5); chain PNNHQSEQTLCVVCMCDFESRQLLRVLPCNHEFHAKCVDKWLKANRTCPICRADASEVHRDS
B4: SH3RF2 RING domain (UniProt Q8TEC5); chain DDLTLLDLLECPVCFEKLDVTAKVLPCQHTFCKPCLQRVFKAHKELRCPECRTPVFSNIEAL
B5: TRIM13 RING domain (UniProt O60858); chain MELLEEDLTCPICCSLFDDPRVLPCSHNFCKKCLEGILEGSVRNSLWRPAPFKCPTCRKETSATGINS
B6: TRIM5 RING domain (UniProt Q9C035); chain LREVKLSPEGQKVDHCARHGEKLLLFCQEDGKVICWLCERSQEHRGHHTFLTEEVAREYQVKL
B7: TRIM24 RING domain (UniProt O15164); chain EAARLNLLDTCAVCHQNIQSRAPKLLPCLHSFCQRCLPAPQRYLMLPAPMLGSAETPPPVPAPGSPVSGSSPFATQVGVIRCPVCSQECAERHII
B8: TRIM40 RING domain (UniProt Q6P9F5); chain LQKDNQEEGVCPICQESLKEAVSTNCGHLFCRVCLTQHVEKASASGVFCCPLCRKPCSEEVLG
Target sequence (chain): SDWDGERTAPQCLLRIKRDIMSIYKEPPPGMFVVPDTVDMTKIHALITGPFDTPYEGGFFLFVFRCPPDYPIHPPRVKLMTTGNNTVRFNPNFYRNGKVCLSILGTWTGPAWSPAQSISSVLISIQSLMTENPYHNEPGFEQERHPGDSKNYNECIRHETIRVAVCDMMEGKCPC
| Molecule | lacZ reporter activity |
| --- | --- |
| VEPSEENSKDCVVCQNGTVNWVLLPCRHTCLCDGCVKYFQQCPMCRQFVQESFALC (CGRRF1 RING domain (UniProt Q99675)) | 0 |
| FQGDVDEDLICPICSGVLEEPVQAPHCEHAFCNACITQWFSQQQTCPVDRSVVTVAHLRP (RNF41 RING domain (UniProt Q9H4P4)) | 1080 |
| B1 (TRIML1 RING domain) | 0 |
| B2 (VPS41 RING domain) | 0 |
| B3 (RNF38 RING domain) | 0 |
| B4 (SH3RF2 RING domain) | 0 |
| DHGAVGQEMCCPICCSEYVKGEVATELPCHHYFHKPCVSIWLQKSGTCPVCRCMFPPPL (PJA1 RING domain (UniProt Q8NG27)) | 2570 |
| B5 (TRIM13 RING domain) | 0 |
| ASLPTSEEDLCPICYAHPISAVFQPCGHKSCKACINQHLMNNKDCFFCKTTIVSVEDWE (RNF123 RING domain (UniProt Q5XPI4)) | 0 |
| B6 (TRIM5 RING domain) | 0 |
| B7 (TRIM24 RING domain) | 0 |
| B8 (TRIM40 RING domain) | 0 |
| GAAPGPEAAECLVCSELALLVLFSPCQHRTVCEECARRMKKCIRCQVVVSKKLRPD (MIB2 RING domain (UniProt Q96AX9)) | 0 |

Study 3
Target: ABI1, truncated, D143A, DHFR fusion (Arabidopsis thaliana)
Method: DHFR PCA, deep sequencing
Sample: yeast
Notes: methotrexate growth selection, single substitutions
Together with: (+)-ABA 0.032 µM
Reference: wild-type fitted maximum
Reading: higher = stronger binding
Parent: PYL1, truncated, DHFR fusion (Arabidopsis thaliana); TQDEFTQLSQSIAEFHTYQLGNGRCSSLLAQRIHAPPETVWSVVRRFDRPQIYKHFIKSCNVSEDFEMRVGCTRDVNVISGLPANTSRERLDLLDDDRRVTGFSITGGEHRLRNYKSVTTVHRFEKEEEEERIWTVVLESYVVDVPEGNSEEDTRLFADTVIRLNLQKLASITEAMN; partner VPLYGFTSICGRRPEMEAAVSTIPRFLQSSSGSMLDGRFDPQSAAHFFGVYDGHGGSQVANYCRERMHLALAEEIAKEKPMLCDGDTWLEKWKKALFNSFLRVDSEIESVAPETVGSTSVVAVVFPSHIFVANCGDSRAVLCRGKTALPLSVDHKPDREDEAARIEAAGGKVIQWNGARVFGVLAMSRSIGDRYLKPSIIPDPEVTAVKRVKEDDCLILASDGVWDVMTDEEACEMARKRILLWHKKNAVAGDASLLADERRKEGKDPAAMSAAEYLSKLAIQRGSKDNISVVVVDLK
| Variant | relative binding score [%] |
| --- | --- |
| R74M | -7.76 |
| T1V | 34.7 |
| A35N | -3.81 |
| S104C | 4.3 |
| A170W | -9.45 |
| F15V | -1.59 |
| Y115N | 4.21 |
| L82S | 6.87 |
| G107Q | 14.4 |
| N165L | 2.52 |
| V145F | -10.7 |
| N61I | 41.8 |
| E128R | 12.5 |
| N77R | 49.7 |
| S9K | 63.1 |

Study 4
Target: CCNB3, cyclin fold, Cln2 fusion (human)
Method: yeast growth competition, sequencing
Sample: yeast
Notes: weak parent motif
Reference: not given
Reading: higher = stronger binding
Parent: CDKN1B docking peptide (human); PSACRNLFGPVDH
| Variant | normalised enrichment score |
| --- | --- |
| PSACRNLSGPVDH [F8S] | 0.261 |
| PSACINLFGPVDH [R5I] | 0.149 |
| TSACRNLFGPVDH [P1T] | 0.46 |
| PSACRMLFGPVDH [N6M] | 0.347 |
| PSACRNDFGPVDH [L7D] | 0.227 |
| PSACRNLFGPVSH [D12S] | 0.000446 |
| PSACRNLFGPGDH [V11G] | 0.358 |
| PSACRNLTGPVDH [F8T] | -0.0139 |
| PSACRNLFGVVDH [P10V] | 0.0438 |
| PSACRNLFGPMDH [V11M] | 0.248 |
| PSACRNLFGPRDH [V11R] | 0.293 |
| PSACRNVFGPVDH [L7V] | 0.458 |
| PEACRNLFGPVDH [S2E] | 0.343 |
| PSACRNLPGPVDH [F8P] | 0.216 |
| PSACRNLFGPVDG [H13G] | 0.307 |
| PSACRNLFGHVDH [P10H] | 0.184 |
| PSACRNLFGPQDH [V11Q] | 0.338 |
| PSNCRNLFGPVDH [A3N] | 0.45 |

For quick reference, copied from above (study 2):
| Molecule | lacZ reporter activity |
| --- | --- |
| FQGDVDEDLICPICSGVLEEPVQAPHCEHAFCNACITQWFSQQQTCPVDRSVVTVAHLRP (RNF41 RING domain (UniProt Q9H4P4)) | 1080 |
| B1 (TRIML1 RING domain) | 0 |
| B2 (VPS41 RING domain) | 0 |
| B3 (RNF38 RING domain) | 0 |
| B4 (SH3RF2 RING domain) | 0 |
| DHGAVGQEMCCPICCSEYVKGEVATELPCHHYFHKPCVSIWLQKSGTCPVCRCMFPPPL (PJA1 RING domain (UniProt Q8NG27)) | 2570 |
| B5 (TRIM13 RING domain) | 0 |
| ASLPTSEEDLCPICYAHPISAVFQPCGHKSCKACINQHLMNNKDCFFCKTTIVSVEDWE (RNF123 RING domain (UniProt Q5XPI4)) | 0 |
| B6 (TRIM5 RING domain) | 0 |
| B7 (TRIM24 RING domain) | 0 |
